Measured values collected from several papers.
Numbered parts are unrelated; each lists some results of a single study. Several values in a cell are separate wells, animals, samples, runs or records.
UniProt P17948, sequence (whole entry, looked up): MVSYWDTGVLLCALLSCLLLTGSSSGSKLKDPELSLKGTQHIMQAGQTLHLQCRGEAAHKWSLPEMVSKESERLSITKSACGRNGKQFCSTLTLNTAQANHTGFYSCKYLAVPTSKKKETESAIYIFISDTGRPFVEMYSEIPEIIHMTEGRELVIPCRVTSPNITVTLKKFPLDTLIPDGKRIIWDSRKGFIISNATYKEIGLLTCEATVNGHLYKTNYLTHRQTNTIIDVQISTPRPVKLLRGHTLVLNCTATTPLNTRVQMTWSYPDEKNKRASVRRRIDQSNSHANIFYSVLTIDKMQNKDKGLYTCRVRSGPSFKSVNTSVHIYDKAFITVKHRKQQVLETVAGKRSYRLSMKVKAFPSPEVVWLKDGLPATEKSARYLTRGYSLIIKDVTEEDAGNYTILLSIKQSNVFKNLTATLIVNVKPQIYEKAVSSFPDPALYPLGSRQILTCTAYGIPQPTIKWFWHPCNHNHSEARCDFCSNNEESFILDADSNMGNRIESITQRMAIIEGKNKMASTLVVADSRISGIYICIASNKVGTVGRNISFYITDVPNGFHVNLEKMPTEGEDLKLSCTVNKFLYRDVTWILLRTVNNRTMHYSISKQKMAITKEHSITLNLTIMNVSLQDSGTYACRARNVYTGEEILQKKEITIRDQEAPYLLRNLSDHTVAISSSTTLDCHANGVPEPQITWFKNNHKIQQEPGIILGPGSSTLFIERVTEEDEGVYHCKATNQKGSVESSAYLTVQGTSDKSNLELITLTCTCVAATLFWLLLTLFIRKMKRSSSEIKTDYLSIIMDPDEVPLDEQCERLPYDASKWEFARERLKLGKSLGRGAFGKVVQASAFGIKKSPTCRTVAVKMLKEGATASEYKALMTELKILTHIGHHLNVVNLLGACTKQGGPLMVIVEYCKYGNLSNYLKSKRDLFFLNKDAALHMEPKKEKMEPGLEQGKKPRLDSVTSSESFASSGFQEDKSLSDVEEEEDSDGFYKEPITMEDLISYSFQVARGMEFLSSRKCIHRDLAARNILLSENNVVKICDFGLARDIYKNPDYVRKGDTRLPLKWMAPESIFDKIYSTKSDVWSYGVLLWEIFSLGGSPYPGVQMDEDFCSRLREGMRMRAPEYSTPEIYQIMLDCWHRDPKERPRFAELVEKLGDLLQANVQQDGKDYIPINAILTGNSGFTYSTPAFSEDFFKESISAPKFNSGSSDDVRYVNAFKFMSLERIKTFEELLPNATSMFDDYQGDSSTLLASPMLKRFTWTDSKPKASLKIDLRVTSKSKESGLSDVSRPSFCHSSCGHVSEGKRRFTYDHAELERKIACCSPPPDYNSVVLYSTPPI
UniProt Q04759, sequence (whole entry, looked up): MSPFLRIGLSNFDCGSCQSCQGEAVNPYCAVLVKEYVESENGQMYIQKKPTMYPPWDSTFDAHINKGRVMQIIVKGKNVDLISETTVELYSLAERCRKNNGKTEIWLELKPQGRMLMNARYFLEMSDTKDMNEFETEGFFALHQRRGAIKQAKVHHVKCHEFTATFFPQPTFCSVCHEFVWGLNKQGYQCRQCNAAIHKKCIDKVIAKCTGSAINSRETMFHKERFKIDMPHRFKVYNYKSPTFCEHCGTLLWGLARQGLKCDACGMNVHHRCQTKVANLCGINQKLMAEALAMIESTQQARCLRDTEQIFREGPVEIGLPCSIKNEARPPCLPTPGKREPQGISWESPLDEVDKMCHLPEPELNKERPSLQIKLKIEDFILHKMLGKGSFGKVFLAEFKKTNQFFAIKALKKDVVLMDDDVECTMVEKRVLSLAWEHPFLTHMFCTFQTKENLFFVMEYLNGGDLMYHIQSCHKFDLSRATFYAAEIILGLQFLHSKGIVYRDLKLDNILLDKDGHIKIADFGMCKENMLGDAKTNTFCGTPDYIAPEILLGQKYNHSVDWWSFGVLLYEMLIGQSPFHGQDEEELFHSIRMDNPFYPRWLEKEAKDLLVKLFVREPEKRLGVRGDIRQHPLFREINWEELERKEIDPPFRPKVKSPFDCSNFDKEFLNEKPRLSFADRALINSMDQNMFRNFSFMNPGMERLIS
UniProt Q9UF33, sequence (whole entry, looked up): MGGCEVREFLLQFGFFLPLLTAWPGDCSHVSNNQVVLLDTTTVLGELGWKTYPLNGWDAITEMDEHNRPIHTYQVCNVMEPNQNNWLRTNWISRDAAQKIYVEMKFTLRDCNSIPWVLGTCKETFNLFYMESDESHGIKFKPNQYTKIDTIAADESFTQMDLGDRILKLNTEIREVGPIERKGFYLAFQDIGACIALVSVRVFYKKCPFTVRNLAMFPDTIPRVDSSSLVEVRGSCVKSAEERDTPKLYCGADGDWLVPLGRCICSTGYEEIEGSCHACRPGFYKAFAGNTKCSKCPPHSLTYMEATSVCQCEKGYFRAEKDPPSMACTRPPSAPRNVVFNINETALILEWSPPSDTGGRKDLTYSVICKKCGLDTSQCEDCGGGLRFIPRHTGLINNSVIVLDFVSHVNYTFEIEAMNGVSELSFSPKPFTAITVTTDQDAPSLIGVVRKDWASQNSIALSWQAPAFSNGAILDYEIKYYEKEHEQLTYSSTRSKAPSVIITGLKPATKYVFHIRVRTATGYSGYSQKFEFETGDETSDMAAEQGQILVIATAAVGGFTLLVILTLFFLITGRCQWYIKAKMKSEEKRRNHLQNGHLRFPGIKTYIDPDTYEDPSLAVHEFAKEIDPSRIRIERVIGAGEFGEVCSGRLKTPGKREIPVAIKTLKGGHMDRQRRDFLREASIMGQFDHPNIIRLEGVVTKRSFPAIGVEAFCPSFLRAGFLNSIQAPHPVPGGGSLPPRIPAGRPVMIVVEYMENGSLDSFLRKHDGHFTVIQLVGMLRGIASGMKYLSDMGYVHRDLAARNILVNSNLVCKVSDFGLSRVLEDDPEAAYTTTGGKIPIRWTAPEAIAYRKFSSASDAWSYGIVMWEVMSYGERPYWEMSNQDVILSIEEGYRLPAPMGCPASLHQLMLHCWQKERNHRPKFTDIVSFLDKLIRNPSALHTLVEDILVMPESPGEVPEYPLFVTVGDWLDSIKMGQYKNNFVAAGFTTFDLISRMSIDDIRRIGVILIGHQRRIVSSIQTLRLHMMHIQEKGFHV
UniProt Q06418, sequence (whole entry, looked up): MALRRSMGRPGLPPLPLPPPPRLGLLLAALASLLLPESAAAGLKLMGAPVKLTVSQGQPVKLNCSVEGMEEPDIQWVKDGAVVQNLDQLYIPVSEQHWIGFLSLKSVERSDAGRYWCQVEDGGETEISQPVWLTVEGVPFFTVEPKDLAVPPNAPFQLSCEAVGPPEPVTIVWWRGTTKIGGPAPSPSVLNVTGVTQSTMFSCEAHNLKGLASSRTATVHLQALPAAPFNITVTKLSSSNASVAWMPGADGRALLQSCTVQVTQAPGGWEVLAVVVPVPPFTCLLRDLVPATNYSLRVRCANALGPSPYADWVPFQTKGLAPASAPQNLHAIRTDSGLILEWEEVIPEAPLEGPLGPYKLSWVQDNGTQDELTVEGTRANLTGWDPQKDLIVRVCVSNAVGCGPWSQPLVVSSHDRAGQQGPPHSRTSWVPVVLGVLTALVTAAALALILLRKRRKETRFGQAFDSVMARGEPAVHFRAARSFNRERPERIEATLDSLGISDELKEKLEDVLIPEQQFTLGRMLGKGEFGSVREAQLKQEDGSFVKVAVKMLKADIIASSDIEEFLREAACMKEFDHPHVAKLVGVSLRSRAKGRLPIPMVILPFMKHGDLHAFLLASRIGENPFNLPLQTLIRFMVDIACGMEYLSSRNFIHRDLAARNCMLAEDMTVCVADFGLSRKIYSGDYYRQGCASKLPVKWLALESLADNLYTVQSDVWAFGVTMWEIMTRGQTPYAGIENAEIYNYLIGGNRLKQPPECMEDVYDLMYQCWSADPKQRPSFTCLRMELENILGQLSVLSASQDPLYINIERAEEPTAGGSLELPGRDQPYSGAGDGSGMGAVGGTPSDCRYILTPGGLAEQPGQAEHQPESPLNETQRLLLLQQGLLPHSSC
UniProt Q05513, sequence (whole entry, looked up): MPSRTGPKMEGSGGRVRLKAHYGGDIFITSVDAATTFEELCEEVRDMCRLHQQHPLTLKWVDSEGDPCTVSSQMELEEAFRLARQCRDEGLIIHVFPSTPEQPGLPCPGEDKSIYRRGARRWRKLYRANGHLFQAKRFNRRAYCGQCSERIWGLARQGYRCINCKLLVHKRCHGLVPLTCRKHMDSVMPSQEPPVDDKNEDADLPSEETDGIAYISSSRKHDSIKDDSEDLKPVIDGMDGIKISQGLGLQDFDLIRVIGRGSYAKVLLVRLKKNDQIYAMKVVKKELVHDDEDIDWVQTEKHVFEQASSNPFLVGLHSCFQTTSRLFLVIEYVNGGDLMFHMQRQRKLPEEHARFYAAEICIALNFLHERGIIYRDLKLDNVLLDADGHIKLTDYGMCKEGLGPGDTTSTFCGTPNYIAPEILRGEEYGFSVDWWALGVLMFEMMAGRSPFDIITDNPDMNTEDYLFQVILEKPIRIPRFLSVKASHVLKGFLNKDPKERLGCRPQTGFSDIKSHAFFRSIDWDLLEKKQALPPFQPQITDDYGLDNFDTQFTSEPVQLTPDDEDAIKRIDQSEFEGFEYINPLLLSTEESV
UniProt Q00526, sequence (whole entry, looked up): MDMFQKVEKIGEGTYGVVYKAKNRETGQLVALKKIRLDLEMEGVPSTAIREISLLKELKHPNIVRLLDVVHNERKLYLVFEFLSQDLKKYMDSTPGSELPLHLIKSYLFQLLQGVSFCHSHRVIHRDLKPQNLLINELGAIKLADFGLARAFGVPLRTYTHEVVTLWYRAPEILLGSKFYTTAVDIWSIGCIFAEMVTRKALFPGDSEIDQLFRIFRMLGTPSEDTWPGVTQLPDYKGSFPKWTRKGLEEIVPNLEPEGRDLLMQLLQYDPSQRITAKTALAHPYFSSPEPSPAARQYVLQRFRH

Sample 1 — effect on: cell-free assay; technique: competition with immobilised ligand; tested at: 1 µM
Compound: O=C(Nc1cnc(Oc2ccc(F)cc2)nc1)N1CCc2ncccc2[C@@H]1c1ccc(F)cc1
target | remaining binding [%]
LCK (Homo sapiens, UniProt P06239) | 83
ULK3 (Homo sapiens, UniProt Q6PHR2) | 95
AKT3 (Homo sapiens, UniProt Q9Y243) | 78
PRKD2 (Homo sapiens, UniProt Q9BZL6) | 85
PIK3CG (Homo sapiens, UniProt P48736) | 85
MAP2K5 (Homo sapiens, UniProt Q13163) | 83
RET (Homo sapiens, UniProt P07949, V804L) | 86
Tyrosine-protein kinase JAK2, JH1 (JAK2, Homo sapiens, UniProt O60674) | 84
Tyrosine-protein kinase ABL1, phosphorylated (ABL1, Homo sapiens, UniProt P00519, F317L) | 83
MAST1 (Homo sapiens, UniProt Q9Y2H9) | 96
TGFBR2 (Homo sapiens, UniProt P37173) | 100
ROS1 (Homo sapiens, UniProt P08922) | 82
MTOR (Homo sapiens, UniProt P42345) | 100
NTRK1 (Homo sapiens, UniProt P04629) | 100
MAPK10 (Homo sapiens, UniProt P53779) | 88
OXSR1 (Homo sapiens, UniProt O95747) | 93
PDPK1 (Homo sapiens, UniProt O15530) | 97
CASK (Homo sapiens, UniProt O14936) | 94
CDK3 (Homo sapiens, UniProt Q00526) | 89
Ribosomal protein S6 kinase alpha-1, C-terminal kinase domain (RPS6KA1, Homo sapiens, UniProt Q15418) | 76

Sample 2 — Compound: Nc1ncnc2c1cnn2-c1ccccc1; effect on: enzyme activity; mode: inhibitor; tested at: 0.5 µM; baseline: control
target | remaining activity
CSNK1E (Homo sapiens, UniProt P49674) | 81.5%
FLT1 (Homo sapiens, UniProt P17948) | 88.5%
PRKCQ (Homo sapiens, UniProt Q04759) | 102%
SRPK1 (Homo sapiens, UniProt Q96SB4) | 98.1%
PRKCZ (Homo sapiens, UniProt Q05513) | 96.3%
PAK6 (Homo sapiens, UniProt Q9NQU5) | 100%
Cyclin-dependent kinase 2, with cyclin E (CDK2, Homo sapiens, UniProt P24941) | 93.9%
CLK1 (Homo sapiens, UniProt P49759) | 91.8%
TEC (Homo sapiens, UniProt P42680) | 103%
SGK2 (Homo sapiens, UniProt Q9HBY8) | 98.4%
JAK1 (Homo sapiens, UniProt P23458) | 98.1%
CLK2 (Homo sapiens, UniProt P49760) | 91.4%
SIK2 (Homo sapiens, UniProt Q9H0K1) | 99.8%
EPHA6 (Homo sapiens, UniProt Q9UF33) | 83.2%
MAP3K20 (Homo sapiens, UniProt Q9NYL2) | 92.5%
CAMKK1 (Homo sapiens, UniProt Q8N5S9) | 84.8%
RPS6KA3 (Homo sapiens, UniProt P51812) | 95%
IGF1R (Homo sapiens, UniProt P08069) | 96.4%
TYRO3 (Homo sapiens, UniProt Q06418) | 102%
MUSK (Homo sapiens, UniProt O15146) | 88%
PAK1 (Homo sapiens, UniProt Q13153) | 94.2%
CAMK1 (Homo sapiens, UniProt Q14012) | 97.5%

Sample 3 — host: C57BL/6 CES1-/- mice, EL4 tumour; route: subcutaneous; dose: 0.3 mg/kg/day DON equivalent; time: 5 days
Structure (SMILES): CC(=O)N[C@@H](Cc1c[nH]c2ccccc12)C(=O)N[C@@H](CCC(=O)C=[N+]=[N-])C(=O)OC(C)C
technique | refers to | cells | matrix | notes | reading | metabolite peak intensity
UPLC-MS/MS | 5-hydroxylysine | – | EL4 tumour | – | – | 1.83e+06 a.u. and 1.63e+06 a.u. and 1.84e+06 a.u. and 1.37e+06 a.u. and 2.36e+06 a.u. and 2.46e+06 a.u.
UPLC-MS/MS | leucine | EL4 | tumour | normalised to tissue mass | higher = more metabolite | 3e+09 a.u. and 2.67e+09 a.u. and 2.47e+09 a.u. and 2.07e+09 a.u. and 2.48e+09 a.u. and 2.45e+09 a.u.
UPLC-MS/MS metabolomics | N1-methyl-4-pyridone-3-carboxamide | – | EL4 tumour | normalised to tissue mass | higher = more metabolite | 2.29e+06 a.u. and 3.24e+06 a.u. and 2.43e+06 a.u. and 3.56e+06 a.u. and 3.32e+06 a.u. and 2.72e+06 a.u.
LC-MS/MS metabolomics | phosphoenolpyruvate | – | EL4 tumour | – | higher = more metabolite | 278000 a.u. and 273000 a.u. and 132000 a.u. and 515000 a.u. and 244000 a.u. and 281000 a.u.
UPLC-MS/MS metabolomics | N-acetylmethionine | – | EL4 tumour | normalised to tissue mass | higher = more metabolite | 8.76e+06 a.u. and 7.82e+06 a.u. and 1.02e+07 a.u. and 9.36e+06 a.u. and 8.24e+06 a.u. and 9.53e+06 a.u.
UPLC-MS/MS metabolomics | guanidinoacetate | – | EL4 tumour | normalised to tissue mass | – | 4.04e+07 a.u. and 2.95e+07 a.u. and 3.13e+07 a.u. and 3.97e+07 a.u. and 6.03e+07 a.u. and 3.38e+07 a.u.
LC-MS/MS metabolomics | methionine sulfone | – | EL4 tumour | – | higher = more metabolite | 64500 a.u. and 81300 a.u. and 156000 a.u. and 246000 a.u.
LC-MS/MS metabolomics | 2'-deoxyinosine | – | EL4 tumour | normalised to tissue mass | higher = more metabolite | 463000 a.u. and 665000 a.u. and 738000 a.u. and 480000 a.u. and 390000 a.u. and 557000 a.u.
UPLC-MS/MS | N-acetyl-aspartyl-glutamate | – | EL4 tumour | – | – | 3.72e+06 a.u. and 1.14e+06 a.u. and 3.57e+06 a.u. and 2.23e+06 a.u. and 1.59e+06 a.u. and 3.33e+06 a.u.
LC-MS/MS metabolomics | 2-hydroxybutyrate/2-hydroxyisobutyrate | – | EL4 tumour | normalised to tissue mass | higher = more metabolite | 9.13e+06 a.u. and 8.06e+06 a.u. and 1.16e+07 a.u. and 6.12e+06 a.u. and 6.74e+06 a.u. and 9.04e+06 a.u.

Sample 4 — matrix: plasma; route: intravenous; dose: 1.0 mg/kg
Structure (SMILES): O=C1CCC(N2Cc3cc(C4CCN(Cc5ccccc5)CC4)ccc3C2=O)C(=O)N1 (stereo not shown)
host | terminal volume of distribution [L/kg]
Sprague Dawley rats, male | 18.8
ICR mice, male | 13.4
Sprague Dawley rat, male | 21.3

For quick reference, copied from above (sample 1):
target | remaining binding [%]
Tyrosine-protein kinase JAK2, JH1 (JAK2, Homo sapiens, UniProt O60674) | 84
Tyrosine-protein kinase ABL1, phosphorylated (ABL1, Homo sapiens, UniProt P00519, F317L) | 83
MAST1 (Homo sapiens, UniProt Q9Y2H9) | 96
